Measurements of several laboratories.
Parts stem from different laboratories: compare values within a part only. Changes are numbered by the printed parent chain.

Sample 1
Target: CEP164, C-terminal peptide (human)
Technique: DHFR complementation, deep sequencing
Medium: yeast
Setting: single substitutions, model-inferred values
Reference: wild type
Direction: higher = weaker binding
Endpoint: binding free energy change
Starting sequence: PDZK1, PDZ domain 2 (human); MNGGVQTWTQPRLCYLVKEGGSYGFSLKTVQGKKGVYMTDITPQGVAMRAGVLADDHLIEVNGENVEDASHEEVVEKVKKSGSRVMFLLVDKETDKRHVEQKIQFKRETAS; partner HNRVKVYRF
V75L: 1.31 kcal/mol
L89M: 0.983 kcal/mol
G35H: 0.0249 kcal/mol
Q104N: -0.187 kcal/mol
Q44Y: 0.0221 kcal/mol
M48I: 0.404 kcal/mol
R84V: 0.0695 kcal/mol
S70E: -0.328 kcal/mol
L53S: 0.34 kcal/mol
Y23T: 1.87 kcal/mol
G35N: 0.912 kcal/mol
G24S: 1.5 kcal/mol
H57E: -0.631 kcal/mol
D68Y: 0.105 kcal/mol
T94K: 0.0203 kcal/mol

Sample 2
Target: Histone acetyltransferase KAT6A, both winged helices, GST fusion (KAT6A, Homo sapiens, UniProt Q92794, residues 1-181)
Technique: protein binding microarray
Molecule type: double-stranded DNA, one strand shown
Medium: in vitro
Concentration: not given
Setting: 8-mer, flanks averaged, mean of 2 arrays, mostly near background
Reference: not given
Direction: higher = stronger binding
Endpoint: E-score
Residues (chain): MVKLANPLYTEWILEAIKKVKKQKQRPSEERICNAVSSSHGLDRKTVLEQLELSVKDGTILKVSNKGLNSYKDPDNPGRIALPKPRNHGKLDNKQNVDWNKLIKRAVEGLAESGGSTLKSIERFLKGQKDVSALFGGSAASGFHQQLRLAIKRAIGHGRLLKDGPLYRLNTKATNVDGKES
ATGGGAGC: -0.037
ACGGGATA: 0.163
ACAGAAGC: -0.0571
CACGTCTA: -0.0231
ATAGTTCA: 0.0207
CTTTTGAC: -0.0523
GAGATCGA: 0.00058
AGTGTGAC: -0.23
CTAACTTC: -0.199
ATGAATCA: -0.116
TAATAGCA: -0.158
AGGGCGGC: 0.128
CCAAAGCA: -0.117
GGGTCACC: 0.0447
AGAAACCG: 0.0612
CCTACTGA: -0.204
AAAGGAAC: -0.0299
AGATCCTA: -0.199
ATGCATCG: 0.00737
AATCTTAC: -0.0465
GAGGTAAC: 0.0299
GAGTTGAC: -0.0722
GGAACAAA: -0.176
AAGGCCGT: 0.249

Sample 3
Target: CREM, bZIP domain (human)
Technique: DHFR protein complementation
Medium: yeast
Setting: single substitutions, most at no-binding floor
Reference: wild-type JUN-FOS pair
Direction: higher = stronger binding
Endpoint: binding fitness
Starting sequence: JUN, bZIP domain (human); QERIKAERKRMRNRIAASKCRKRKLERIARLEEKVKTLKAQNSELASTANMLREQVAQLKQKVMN; partner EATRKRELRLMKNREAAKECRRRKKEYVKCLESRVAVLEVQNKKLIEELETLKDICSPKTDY
L38N: -1.6 natural log
I28V: -1.47 natural log
V35E: -1.44 natural log
V56F: -1.27 natural log
T37A: -1.45 natural log
A49D: -1.44 natural log
E54T: -1.32 natural log
S43E: -1.29 natural log
L45H: -1.59 natural log
K36T: -1.45 natural log
L45G: -1.54 natural log
V56E: -1.49 natural log

Sample 4
Target: CCND3, cyclin fold, Cln2 fusion (human)
Technique: yeast growth competition, sequencing
Medium: yeast
Setting: weak parent motif
Reference: not given
Direction: higher = stronger binding
Endpoint: normalised enrichment score
Starting sequence: CDKN1A docking peptide (human); SKACRRLFGPVDS
SKACFRLFGPVDS [R5F]: -0.00988
SKACRRLFGPHDS [V11H]: 0.484
SKACRRKFGPVDS [L7K]: 0.223
SKACRRLFGYVDS [P10Y]: 0.439
SKAMRRLFGPVDS [C4M]: -0.31
SKACRRLFGNVDS [P10N]: 0.303
SAACRRLFGPVDS [K2A]: 0.199
SKACMRLFGPVDS [R5M]: 0.0415
SKACKRLLGPVDS [R5K F8L]: 0.175
SKACRRLFGPSDS [V11S]: 0.477
SKACRRLFGPVAS [D12A]: 0.104
SKACRRLFGPVIS [D12I]: 0.367
SKACRRLFGPFDS [V11F]: 0.298
SKACARAFGPVDS [R5A L7A]: 0.166
SKACRRLFTPVDS [G9T]: 0.327
SKACRRLFGPQDS [V11Q]: 0.265
SKACRRLFGDVDS [P10D]: 0.0716
SKACRRLFGKVDS [P10K]: 0.265
SKACRRLFGHVDS [P10H]: 0.0224
SKACRRLFGPVDA [S13A]: 0.198
SKACRRLFGPKDS [V11K]: 0.0223
SKACRRLWGPVDS [F8W]: 0.179
SQACRRLFGPVDS [K2Q]: 0.299
SDACRRLFGPVDS [K2D]: 0.354
SSACRRLFGPVDS [K2S]: 0.46

Sample 5
Target: Prothrombin, mature alpha-thrombin (F2, Homo sapiens, UniProt P00734)
Technique: aptamer microarray, sandwich
Molecule type: DNA with 2'F-ANA
Medium: in vitro
Concentration: 200 nM
Setting: whole 15-mer aptamer, many near background
Together with: Cy3 exosite-II aptamer, 400 nM
Direction: higher = stronger binding
Endpoint: mean fluorescence intensity
Strand: GGTTGGTGTGGTTGG
2'F-ANA at 1 2 3 6 8 9 10 13 14: 49.2 a.u.
2'F-ANA at 5 6 9 12: 173 a.u.
2'F-ANA at 3 5 6 7 9 10 13: 84.8 a.u.
2'F-ANA at 1 2 3 4 5 6 8 10 11 13 14 15: 51.5 a.u.
2'F-ANA at 2 6 8 10 11 12 14: 79.3 a.u.
2'F-ANA at 1 2 3 7 8 9 11 14 15: 76.6 a.u.
2'F-ANA at 2 5 6 9 11 13 14: 56.6 a.u.
2'F-ANA at 2 4 5 7 9 10: 51.5 a.u.
2'F-ANA at 1 2 3 5 6 8 10 11 13 14 15: 54.5 a.u.
2'F-ANA at 4 6 7 8 9 10 11 12 14 15: 57.4 a.u.
2'F-ANA at 1 6 7 8 9 10 12 13 15: 71.7 a.u.
2'F-ANA at 1 2 5 6 13 14: 46 a.u.
2'F-ANA at 2 3 6 8 10 12 14 15: 253 a.u.
2'F-ANA at 1 2 8 9 11 13 14: 59.3 a.u.
2'F-ANA at 4 8 9 10 13 14: 57.5 a.u.
2'F-ANA at 4 5 6 7 8 9 11: 74.6 a.u.
2'F-ANA at 1 2 3 5 8 9 10 13 15: 51.4 a.u.
2'F-ANA at 1 3 5 8 9 10 12 13 15: 52.6 a.u.
2'F-ANA at 2 4 7 11 12 15: 420 a.u.
2'F-ANA at 1 2 7 9 10 15: 72.5 a.u.
2'F-ANA at 5 7 8 10 12 13 15: 124 a.u.
2'F-ANA at 1 2 5 6 8 10 12 13 14: 48.2 a.u.
2'F-ANA at 3 4 5 9 10 12 13: 52.5 a.u.
2'F-ANA at 1 5 8 9 10 11 12 14 15: 49.7 a.u.
2'F-ANA at 2 3 4 9 10 11 12: 307 a.u.

Sample 6
Target: ABI1, truncated, D143A, DHFR fusion (Arabidopsis thaliana)
Technique: DHFR PCA, deep sequencing
Medium: yeast
Setting: methotrexate growth selection, single substitutions
Together with: (+)-ABA 4.8 µM
Reference: wild-type fitted maximum
Direction: higher = stronger binding
Endpoint: relative binding score
Starting sequence: PYL1, truncated, DHFR fusion (Arabidopsis thaliana); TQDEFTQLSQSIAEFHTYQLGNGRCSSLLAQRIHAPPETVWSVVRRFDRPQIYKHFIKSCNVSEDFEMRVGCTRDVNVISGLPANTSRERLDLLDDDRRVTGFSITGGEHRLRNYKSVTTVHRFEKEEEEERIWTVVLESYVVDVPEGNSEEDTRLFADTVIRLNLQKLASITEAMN
I133Q: 84.3%
L28V: 66.7%
I57H: 8.12%
L8P: 14.1%
N165F: -10%
R88I: 78.1%
I105M: 11.3%
S87D: 6.06%
R99W: 89.2%
Q7F: 69.7%
S87Y: 33.4%
D97P: 15.1%
R111L: 21.2%
S27G: 78.3%
L20E: 77.1%

Further values, each from its own experiment
PhoQ, residues 284 288 289 292 302 303 SIHLQL — fold induction (PhoP, residues 12 14 15 18 19 GHCSL (Escherichia coli, UniProt P23836); Sort-seq, refers to: YFP reporter; E. coli; PhoQ-PhoP variant library, together with: 10 µM Mg2+; reference: high Mg2+ state, higher = stronger signaling): 14.2
